Results gathered from unrelated publications.
Numbered parts are unrelated; each lists some results of a single study. Substitutions count along the parent as printed.

Series 1
Target: ABI1, truncated, D143A, DHFR fusion (Arabidopsis thaliana)
Technique: DHFR PCA, deep sequencing
Matrix: yeast
Setting: methotrexate growth selection, single substitutions
Together with: (+)-ABA 200 µM
Reference: wild-type fitted maximum
Direction: higher = stronger binding
Parent: PYL1, truncated, DHFR fusion (Arabidopsis thaliana); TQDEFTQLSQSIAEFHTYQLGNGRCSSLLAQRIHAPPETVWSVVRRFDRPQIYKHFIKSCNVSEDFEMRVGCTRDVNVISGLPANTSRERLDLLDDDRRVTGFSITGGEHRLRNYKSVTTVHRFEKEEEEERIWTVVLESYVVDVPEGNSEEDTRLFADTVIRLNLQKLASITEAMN; partner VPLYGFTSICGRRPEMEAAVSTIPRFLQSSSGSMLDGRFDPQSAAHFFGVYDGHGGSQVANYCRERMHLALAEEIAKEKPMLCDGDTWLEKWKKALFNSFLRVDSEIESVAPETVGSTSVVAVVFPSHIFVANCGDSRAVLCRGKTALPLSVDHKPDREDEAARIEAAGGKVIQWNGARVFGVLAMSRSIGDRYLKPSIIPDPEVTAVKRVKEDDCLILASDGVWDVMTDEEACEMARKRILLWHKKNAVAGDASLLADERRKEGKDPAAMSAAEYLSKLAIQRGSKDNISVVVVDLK
Change	relative binding score [%]
K54Y	10
A175V	98.6
G108K	33.9
I133S	104
I133N	102
V121E	3.56
C72I	98.9
P146L	47.2
R24W	68.2
S104E	51.8
Q10L	92.1
I162A	26.6
D96R	10.4
T17I	77.5
E127S	107
I52T	102
T101M	111
D153N	61.4
T173R	8.73
R49L	84.9
D65S	98.3
L8S	61.6

Series 2
Target: Prothrombin, mature alpha-thrombin (F2, Homo sapiens, UniProt P00734)
Technique: aptamer microarray, sandwich
Form: DNA with 2'F-ANA
Matrix: in vitro
Tested at: 200 nM
Setting: whole 15-mer aptamer, many near background
Together with: Cy3 exosite-II aptamer, 400 nM
Direction: higher = stronger binding
Sequence: GGTTGGTGTGGTTGG
Modification	mean fluorescence intensity [a.u.]
2'F-ANA at 1 3 5 6 10 11 12 14 15	46.9
2'F-ANA at 1 2 5 6 9 10 12	47
2'F-ANA at 1 5 6 7 8 9 14	68.3
2'F-ANA at 1 3 4 6 7 9 10 11 12 15	72.7
2'F-ANA at 3 8 9 12 13	1140
2'F-ANA at 3 4 8 12 14	448
2'F-ANA at 4 5 6 12 14 15	52.3
2'F-ANA at 1 2 3 4 5 6 7 8 9 10 11 14	61.5
2'F-ANA at 3 4 5 10 11 12 13 15	53.6
2'F-ANA at 1 2 3 10 11 12 14 15	66
2'F-ANA at 6 7 11 14 15	173
2'F-ANA at 5 9 11 14 15	41.7
2'F-ANA at 1 3 4 5 6 7 12	141
2'F-ANA at 2 3 5 7 8 11 15	93.3
2'F-ANA at 3 4 6 7 10 12 14	196
2'F-ANA at 1 3 5 7 10 11 13 14	61.3
2'F-ANA at 1 2 3 5 8 9 10 11 13	53.6
2'F-ANA at 1 6 8 9 12 13	299
2'F-ANA at 2 4 5 6 7 9 10 13	46.9
2'F-ANA at 1 2 4 7 8 10 11	52.9

Series 3
Target: Sal-like protein 4, full length isoform A (SALL4, Homo sapiens, UniProt Q9UJQ4, residues 1-1053)
UniProt Q9UJQ4, sequence (whole entry, looked up): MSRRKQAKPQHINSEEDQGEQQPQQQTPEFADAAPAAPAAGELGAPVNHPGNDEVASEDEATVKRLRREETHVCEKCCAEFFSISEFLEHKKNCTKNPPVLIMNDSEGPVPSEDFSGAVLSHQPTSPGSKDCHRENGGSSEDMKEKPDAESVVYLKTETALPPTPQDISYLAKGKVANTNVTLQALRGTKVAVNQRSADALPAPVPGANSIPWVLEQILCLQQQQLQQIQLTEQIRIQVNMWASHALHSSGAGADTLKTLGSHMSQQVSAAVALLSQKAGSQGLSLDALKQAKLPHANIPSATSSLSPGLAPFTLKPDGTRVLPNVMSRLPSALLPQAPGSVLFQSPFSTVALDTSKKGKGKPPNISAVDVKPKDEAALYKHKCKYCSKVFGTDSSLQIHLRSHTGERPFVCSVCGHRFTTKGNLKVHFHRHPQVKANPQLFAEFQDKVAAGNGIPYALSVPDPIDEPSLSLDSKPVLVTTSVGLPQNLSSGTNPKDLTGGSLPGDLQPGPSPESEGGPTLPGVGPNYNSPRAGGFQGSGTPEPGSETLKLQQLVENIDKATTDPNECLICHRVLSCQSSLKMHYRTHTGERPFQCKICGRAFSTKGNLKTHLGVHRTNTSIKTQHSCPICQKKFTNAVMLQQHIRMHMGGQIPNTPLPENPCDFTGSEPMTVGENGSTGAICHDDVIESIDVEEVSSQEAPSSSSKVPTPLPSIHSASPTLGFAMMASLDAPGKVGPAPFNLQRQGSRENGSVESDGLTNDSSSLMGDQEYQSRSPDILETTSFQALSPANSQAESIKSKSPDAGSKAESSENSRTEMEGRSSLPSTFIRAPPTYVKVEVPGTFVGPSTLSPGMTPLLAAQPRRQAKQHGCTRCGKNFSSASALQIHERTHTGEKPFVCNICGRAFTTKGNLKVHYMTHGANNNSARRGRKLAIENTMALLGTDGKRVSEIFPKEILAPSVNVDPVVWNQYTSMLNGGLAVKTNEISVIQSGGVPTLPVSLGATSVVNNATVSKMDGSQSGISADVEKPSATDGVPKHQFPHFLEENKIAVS
Technique: universal PBM
Form: double-stranded DNA, one strand shown
Matrix: in vitro
Tested at: 600 nM
Setting: 8-mer, flanks averaged, mean of replicates
Direction: higher = stronger binding
Sequence	E-score
AGTCATCC	-0.122
CACAGCTC	-0.194
CGATGAAA	0.21
TATCCCGA	-0.0901
AAAAACGC	0.00085
CGGAGGAC	-0.197
GGGCGTAA	-0.163
TATCGACA	0.0391
GAGATCTC	-0.174
ACTGTATC	0.0603
ACACCGCA	-0.165
ACTGTGTC	-0.00125
CAAGCTGG	-0.153
AATATTGG	0.317
AGGAGTGC	-0.179
GAAGGCCA	-0.304
AGGGATCC	-0.376
CTTCAGCC	-0.175
AGGCATGG	-0.171
AAAGCTCC	-0.213
AAGCAAAC	0.047

Series 4
Target: UBE2G1 UBC core domain (UniProt P62253)
Technique: yeast two-hybrid
Matrix: yeast
Setting: mostly zero background
Reference: not given
Direction: higher = stronger interaction
B1: TRIM37 RING domain (UniProt O94972); chain SVESIAEVFRCFICMEKLRDARLCPHCSKLCCFSCIRRWLTEQRAQCPHCRAPLQLRELVN
B2: RNF2 RING domain (UniProt Q99496); chain SPRSLHSELMCPICLDMLKNTMTTKECLHRFCADCIITALRSGNKECPTCRKKLVSKRSLR
B3: RNF31 RING domain (UniProt Q96EP0); chain AFLRRLLAQECAVCGWALPHNRMQALTSCECTICPDCFRQHFTIALKEKHITDMVCPACGRPDLTDDTQLL
B4: MYCBP2 RING domain (UniProt O75592); chain TSLKQDADDMCMICFTEALSAAPAIQLDCSHIFHLQCCRRVLENRWLGPRITFGFISCPICKNKINHIVLKD
B5: RNF152 RING domain (UniProt Q8N8N0); chain ETLSQDSLLECQICFNYYSPRRRPKLLDCKHTCCSVCLQQMRTSQKDVRCPWCRGVTKLPPGFS
B6: RNF187 RING domain (UniProt Q5TA31); chain ALPAGPAEAACALCQRAPREPVRADCGHRFCRACVVRFWAEEDGPFPCPECADDCWQRAVEP
B7: TRIM22 RING domain (UniProt Q8IYM9); chain VKVDIEKEVTCPICLELLTEPLSLDCGHSFCQACITAKIKESVIISRGESSCPVCQTRFQPGNLRP
B8: TRIM26 RING domain (UniProt Q12899); chain PLRSLEEEVTCSICLDYLRDPVTIDCGHVFCRSCTTDVRPISGSRPVCPLCKKPFKKENIRP
B9: TRIM31 RING domain (UniProt Q9BZY9); chain FVNKLQEEVICPICLDILQKPVTIDCGHNFCLKCITQIGETSCGFFKCPLCKTSVRKNAIRF
Construct (chain): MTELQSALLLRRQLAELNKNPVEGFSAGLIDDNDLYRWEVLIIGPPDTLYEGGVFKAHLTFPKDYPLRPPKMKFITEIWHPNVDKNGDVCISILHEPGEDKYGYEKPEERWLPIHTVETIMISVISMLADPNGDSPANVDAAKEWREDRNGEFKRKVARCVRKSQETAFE
Sequence	lacZ reporter activity
B1 (TRIM37 RING domain)	0
B2 (RNF2 RING domain)	0
B3 (RNF31 RING domain)	0
B4 (MYCBP2 RING domain)	0
YPEEVDDDLICHICLQALLDPLDTPCGHTYCTLCLTNFLVEKDFCPMDRKPLVLQHCKK (LNX1 RING domain (UniProt Q8TBB1))	0
B5 (RNF152 RING domain)	0
B6 (RNF187 RING domain)	0
B7 (TRIM22 RING domain)	0
B8 (TRIM26 RING domain)	0
KPDKMEETLTCIICQDLLHDCVSLQPCMHTFCAACYSGWMERSSLCPTCRCPVERICKNH (CHFR RING domain (UniProt Q96EP1))	0
B9 (TRIM31 RING domain)	0

Series 5
Target: CCNB1, cyclin fold, Cln2 fusion (human)
Technique: yeast growth competition, sequencing
Matrix: yeast
Setting: weak parent motif
Reference: not given
Direction: higher = stronger binding
Parent: CDC25A docking peptide (human); PPHRRRLLFACSP
Change	normalised enrichment score
PPHRRRLLFACST [P13T]	0.58
PPHRRRKLFACSP [L7K]	0.477
PPHRRRLLFCCSP [A10C]	0.0948
PPHRRRVLFACSP [L7V]	0.85
PPHTRRLLFACSP [R4T]	0.306
PPHRRRLLFADSP [C11D]	-0.117
PPHRRRLLDACSP [F9D]	-0.285
PPHRRRLLFAWSP [C11W]	0.253
PPHRMRLLFACSP [R5M]	0.808
PPHRRALLFACSP [R6A]	-0.0247
PPHRRRLLFANSP [C11N]	-0.237
PPHSRRLLFACSP [R4S]	0.227
PPHRRRLLSACSP [F9S]	1.21
PPHRKRLLLACSP [R5K F9L]	0.719
PPHRRRLLAACSP [F9A]	1.33
PPYRRRLLFACSP [H3Y]	1.16
PPHRRRALFACSP [L7A]	0.904

Series 6
Target: Protein C-ets-1 (ETS1, Homo sapiens, UniProt P14921, residues 1-441, Y397A, full length assumed)
UniProt P14921, sequence (whole entry, unmodified, looked up): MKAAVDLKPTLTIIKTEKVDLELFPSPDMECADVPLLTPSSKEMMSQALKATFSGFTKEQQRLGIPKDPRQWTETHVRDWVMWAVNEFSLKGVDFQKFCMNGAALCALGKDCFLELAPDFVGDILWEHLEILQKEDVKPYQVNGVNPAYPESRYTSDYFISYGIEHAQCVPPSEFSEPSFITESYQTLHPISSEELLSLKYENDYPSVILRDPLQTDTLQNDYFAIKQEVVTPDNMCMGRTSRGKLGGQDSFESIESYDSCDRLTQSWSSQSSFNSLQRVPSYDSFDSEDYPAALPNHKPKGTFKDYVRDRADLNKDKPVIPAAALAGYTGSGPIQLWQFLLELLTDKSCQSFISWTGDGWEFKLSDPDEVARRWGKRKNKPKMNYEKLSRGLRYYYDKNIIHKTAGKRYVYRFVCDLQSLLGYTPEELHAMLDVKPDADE
Technique: protein-binding microarray
Form: double-stranded DNA, one strand shown
Matrix: in vitro
Tested at: not given
Setting: k-mer, scored over probes, only values ≥0.25
Direction: higher = stronger binding
Sequence	E-score
TGCGGAAA	0.286
ACATATGT	0.342
CGAATGAC	0.263
GACAGTGC	0.259
CTTCCGTA	0.326
CAATTGCC	0.331
AGGGGAGG	0.329
AGCTTCCG	0.337
CAAATATG	0.251
GCCGGAAA	0.384
TCGTACAA	0.303
CCGCCACA	0.281
CTAGCAAA	0.316
GTACGTAC	0.274
GTGTCGCA	0.274
ACAATAGT	0.274
GCGGAAGC	0.388
CCGCAAAC	0.311
ACGTCCGG	0.33
ACGACAAA	0.415
ATTGGCAC	0.326
AGCAAACA	0.298
CATGTCGG	0.256
